Literature values, collected from citations in different studies.
Lines come from different studies, so protocols differ. ± gives the spread as reported. In brackets after ≈: the same amount, converted by molar mass.

SMILES | test | system | setting | how to read | quantity | value
CC(C)[C@H](N)C(=O)OCCOCn1cnc2c(=O)[nH]c(N)nc21 |  | human |  |  | oral bioavailability | 83%
CCN1CCN(Cc2ccc(Nc3ncc(F)c(-c4cc(F)c5nc(C)n(C(C)C)c5c4)n3)nc2)CC1 |  | human | 100 mg twice daily multiple dose, tablet |  | Cmin | 159 ng/mL
CCC(C)n1ncn(-c2ccc(N3CCN(c4ccc(OCC5COC(Cn6cncn6)(c6ccc(Cl)cc6Cl)O5)cc4)CC3)cc2)c1=O (centres unmarked) |  | plasma | concentration not given, total, steady state |  | Cmax | 900 nM
C[Si]1(C)O[Si](C)(C)O[Si](C)(C)O[Si](C)(C)O[Si](C)(C)O1 |  | 1-octanol/water | 23 °C |  | log KOW | 5.71
Nc1nc(=O)n([C@@H]2CS[C@H](CO)O2)cc1F |  | monkey | 80 mg/kg |  | bioavailability | 58%
CCN1CCN(C(=O)c2ccc(-n3nc(-c4cccnc4)c4c3-c3sc(NC(C)=O)nc3CC4)cc2)CC1 |  | mouse | intravenous |  | half-life | 0.25 h
C#Cc1cccc(Nc2ncnc3cc(OCCOC)c(OCCOC)cc23)c1 |  | human |  |  | free Cmax | 249 nM
N#CCNC(=O)c1ccc(-c2ccnc(Nc3ccc(N4CCOCC4)cc3)n2)cc1 |  | patients with myelofibrosis | dose not given, integrated long-term safety, phase III trials |  | incidence of grade ≥3 peripheral neuropathy | 1.2%
C#C[C@]1(O)CC[C@H]2[C@@H]3CCc4cc(O)ccc4[C@H]3CC[C@@]21C |  | human, fed | 0.02 mg, single dose |  | Cmax, mean | 0.0365 ng/mL
CC(C)c1nc(N(C)S(C)(=O)=O)nc(-c2ccc(F)cc2)c1/C=C/[C@@H](O)C[C@@H](O)CC(=O)O |  | human liver microsomes | Simcyp input parameter |  | CLint additional | 17 µL/min/mg protein
Cc1nsc(-c2nnc3n2CCN(C(=O)c2ccc(F)cc2)[C@@H]3C)n1 |  | human | oral, mean reported |  | Vz/F | 189 L
Nc1ccn([C@@H]2O[C@H](CO)[C@@H](O)C2(F)F)c(=O)n1 |  | human | intravenous infusion, dose not given, infusion under 70 min |  | volume of distribution | 50 L/m²
CN(Cc1cnc2nc(N)nc(N)c2n1)c1ccc(C(=O)N[C@@H](CCC(=O)O)C(=O)O)cc1 |  | water |  |  | solubility | < 1000 µg/mL
CN(C)CCc1c[nH]c2ccc(C[C@H]3COC(=O)N3)cc12 |  | human |  |  | fraction absorbed | 50%
Cc1ccc(Nc2nccc(N(C)c3ccc4c(C)n(C)nc4c3)n2)cc1S(N)(=O)=O.Cl |  | water |  |  | solubility | < 1000 µg/mL
O=C(NC[C@H]1CN(c2ccc(N3CCOCC3=O)cc2)C(=O)O1)c1ccc(Cl)s1 |  | in vivo |  |  | half-life | 7 to 11 h
NCCNC(=O)c1ccc(Cl)cn1 |  | plasma |  |  | free Cmax | 2260 nM
c1ccc2ccccc2c1 | substrate | human liver microsomes |  |  | Km | 8.06 µM
C[C@@H]1C[C@H]2[C@@H]3CCC4=CC(=O)C=C[C@]4(C)[C@@]3(F)[C@@H](O)C[C@]2(C)[C@@]1(O)C(=O)CO |  | human | concentration not given, clinical |  | diarrhoea incidence | 0%
CCN(C(=O)c1c(O)c2c(Cl)cccc2n(C)c1=O)c1ccccc1 |  | water |  |  | solubility | < 1000 µg/mL

SMILES | test | system | setting | how to read | quantity | value
COc1cccc2c1C(=O)c1c(O)c3c(c(O)c1C2=O)C[C@@](O)(C(=O)CO)C[C@@H]3O[C@H]1C[C@H](N)[C@H](O)[C@H](C)O1 |  | plasma | concentration not given, total, steady state |  | Cmax | 1630 nM
CN[C@H]1CC[C@@H](c2ccc(Cl)c(Cl)c2)c2ccccc21 |  | supercritical CO2 |  |  | crossover pressure | 170 to 195 bar
Cc1cc(-c2nccc3c2ccn3CC(=O)Nc2ccc(-c3cnccn3)cn2)ccn1 |  | dog | 3 mg/kg/day, 1 month, repeat dosing |  | Cmax, total | 640 nM
O=c1c(O)c(-c2ccc(O)c(O)c2)oc2cc(O)cc(O)c12 |  | plasma | concentration not given, total, steady state |  | Cmax | 50 nM
CN(C)C(=O)c1cc2cnc(Nc3ccc(N4CCNCC4)cn3)nc2n1C1CCCC1 |  | mouse | dose not given |  | oral bioavailability | 65%
COc1cc(N2CCC3(CCN(C)CC3)CC2)ccc1Nc1ncc(Cl)c(Nc2ccccc2P(C)(C)=O)n1 |  | NSCLC patients | oral, 30 300 mg multiple doses |  | CL/F | 15.8 to 27.9 L/h
Cn1c(Cn2ccc(C(F)(F)F)c(Oc3cc(Cl)cc(C#N)c3)c2=O)n[nH]c1=O |  | human | up to 48 weeks, trial | reference: subjects | back pain incidence | 5.5%
COc1cc(Cc2cnc(N)nc2N)cc(OC)c1OC |  | human |  |  | Vd | 0.72 L/kg
Cc1cn([C@H]2C[C@H](N=[N+]=[N-])[C@@H](CO)O2)c(=O)[nH]c1=O |  | human |  |  | oral bioavailability | 74%
CC(C)c1nc(N(C)S(C)(=O)=O)nc(-c2ccc(F)cc2)c1/C=C/[C@@H](O)C[C@@H](O)CC(=O)O |  | hepatocytes | liver |  | passive diffusion clearance | 0.0025 mL/min/10⁶ hepatocytes
CNCc1cc(-c2ccccc2F)n(S(=O)(=O)c2cccnc2)c1 |  | human, plasma | 30 mg multiple dose, observed clinical data |  | Ctrough | 3.65 ng/mL
CC/C(=C(\c1ccccc1)c1ccc(OCCN(C)C)cc1)c1ccccc1 |  | human |  |  | free Cmax | 6.46 nM
NC[C@@]1(CC(=O)O)[C@@H]2CC[C@H]3C[C@@H]2[C@@H]1C3 |  | healthy humans, urine | 40 mg, 48 h | reference: dose | cumulative urinary excretion | 79.2%
N#Cc1ccc(C(c2ccc(C#N)cc2)n2cncn2)cc1 |  | rat, orthotopic C6 glioma, brain |  | reference: tumoral over nontumoral region | concentration ratio | ~1.5 fold
CC(C)[C@H](C(=O)Nc1ccc(C(=O)NO)cc1)c1ccccc1 |  | CD2F1 mouse | oral, 50 mg/kg single dose |  | oral bioavailability | 27%
Cn1cnc2c(F)c(Nc3ccc(Br)cc3Cl)c(C(=O)NOCCO)cc21 |  | water |  |  | solubility | < 1000 µg/mL
Nc1cccc2c1C(=O)N(C1CCC(=O)NC1=O)C2=O (centres unmarked) |  | relapsed refractory multiple myeloma patients | dose not given, grade up to 4 |  | incidence of grade 3 anemia | 17%
N=C(N)c1ncn([C@@H]2O[C@H](CO)[C@@H](O)[C@H]2O)n1 |  | human | 600 mg |  | oral bioavailability | 66%
CC(C)NC(=O)COc1cccc(-c2nc(Nc3ccc4[nH]ncc4c3)c3ccccc3n2)c1 |  | human | oral, 200 mg |  | absolute bioavailability | 64%
Fc1ccc([C@@H]2CCNC[C@H]2COc2ccc3c(c2)OCO3)cc1 |  | human |  |  | free Cmax | 14 nM

SMILES | test | system | setting | how to read | quantity | value
Cn1c(=O)c2c(ncn2C)n(C)c1=O |  | human |  |  | Vd | 40 to 50 L
Cc1nn(C)cc1S(=O)(=O)NC(=O)c1ccc(-n2ccc(OCC(C)(C)C(F)(F)F)n2)nc1N1C[C@@H](C)CC1(C)C |  | non-pregnant cystic fibrosis patients |  |  | elimination half-life | 27.4 h
C[C@H]1CO[C@@H]2Cn3cc(C(=O)NCc4ccc(F)cc4F)c(=O)c(O)c3C(=O)N12 |  | human | oral, two 5 mg tablets, second study | reference: fed over fasted | AUC(0-inf) ratio | 1.04
COc1cnc(-n2cnc(C)n2)c2c1c(C(=O)C(=O)N1CCN(C(=O)c3ccccc3)CC1)cn2COP(=O)(O)O |  | healthy human volunteers, faeces | oral, 300 mg single dose | reference: dose | fecal recovery of radioactivity | 33%
C[C@@H](Oc1ccc(S(C)(=O)=O)cc1C(=O)N1C[C@@H]2C[C@]2(c2cc(C(F)(F)F)on2)C1)C(F)(F)F |  | human | oral, 25 mg, tablet, fasted |  | absolute bioavailability | 72%
CNCCC(Oc1ccc(C(F)(F)F)cc1)c1ccccc1 (centres unmarked) |  | human |  |  | free Cmax | 70.9 nM
COc1cc2c(Oc3ccc4[nH]c(C)cc4c3F)ccnc2cc1OCC1(N)CC1 |  | adult humans | 12 mg/day continuous |  | Cmin,ss | 20 to 50 ng/mL
CCN(CC)CCNC(=O)c1c(C)[nH]c(/C=C2\C(=O)Nc3ccc(F)cc32)c1C |  | water |  |  | solubility | < 1000 µg/mL
COc1cc(N2CCC(N3CCN(C)CC3)CC2)ccc1Nc1ncc(Cl)c(Nc2ccccc2P(C)(C)=O)n1 |  | healthy subjects | 90 mg, single dose alone, itraconazole study |  | AUC(0-inf) | 6450 ng·h/mL
CC[C@H]1OC(=O)[C@H](C)[C@@H](O[C@H]2C[C@@](C)(OC)[C@@H](O)[C@H](C)O2)[C@H](C)[C@@H](O[C@@H]2O[C@H](C)C[C@H](N(C)C)[C@H]2O)[C@](C)(OC)C[C@@H](C)C(=O)[C@H](C)[C@@H](O)[C@]1(C)O |  | FaSSIF | literature value |  | solubility | 132 µg/mL (≈ 176 µM)
CN1CC(=O)N2[C@H](c3ccc4c(c3)OCO4)c3[nH]c4ccccc4c3C[C@@H]2C1=O |  | rat | oral, 1 mg/kg |  | AUC(0-t) | 158 ± 85.7 ng·h/mL
COc1ccnc(C[S+]([O-])c2nc3ccc(OC(F)F)cc3[nH]2)c1OC (centres unmarked) |  | supercritical CO2 |  |  | crossover pressure | 150 to 170 bar
COCCOC(=O)C1=C(C)NC(C)=C(C(=O)OC(C)C)C1c1cccc([N+](=O)[O-])c1 (centres unmarked) |  | water |  |  | solubility | < 1000 µg/mL
O=C1C=CC(=O)c2ccccc21 |  | dimethylformamide |  | reference: compound over ubiquinone | midpoint potential difference | 20 mV
CCCN(CCC)CCc1cccc2c1CC(=O)N2 |  | plasma |  |  | free Cmax | 106 nM
N#C[C@@]1(c2ccc3c(N)ncnn23)O[C@H](CO)[C@@H](O)[C@H]1O |  | mouse |  |  | oral bioavailability | 39%
O=C(O)c1cc(-c2ccc(F)cc2F)ccc1O |  | plasma | concentration not given |  | unbound Cmax | 490 nM
C[Si](C)(C)O[Si](C)(C)C | HPLC retention correlation | 1-octanol/water | 25 °C |  | log KOW | 4.2
COCCc1ccc(OCC(O)CNC(C)C)cc1 (centres unmarked) |  | human fasted | 100 mg multiple doses, day 5, mean |  | AUC(0-24 h) | 533 ng·h/mL

Some of these lines once more:
SMILES | test | system | setting | how to read | quantity | value
CNCCC(Oc1ccc(C(F)(F)F)cc1)c1ccccc1 (centres unmarked) |  | human |  |  | free Cmax | 70.9 nM
COc1cc2c(Oc3ccc4[nH]c(C)cc4c3F)ccnc2cc1OCC1(N)CC1 |  | adult humans | 12 mg/day continuous |  | Cmin,ss | 20 to 50 ng/mL
CCN(CC)CCNC(=O)c1c(C)[nH]c(/C=C2\C(=O)Nc3ccc(F)cc32)c1C |  | water |  |  | solubility | < 1000 µg/mL
COc1cc(N2CCC(N3CCN(C)CC3)CC2)ccc1Nc1ncc(Cl)c(Nc2ccccc2P(C)(C)=O)n1 |  | healthy subjects | 90 mg, single dose alone, itraconazole study |  | AUC(0-inf) | 6450 ng·h/mL
CC[C@H]1OC(=O)[C@H](C)[C@@H](O[C@H]2C[C@@](C)(OC)[C@@H](O)[C@H](C)O2)[C@H](C)[C@@H](O[C@@H]2O[C@H](C)C[C@H](N(C)C)[C@H]2O)[C@](C)(OC)C[C@@H](C)C(=O)[C@H](C)[C@@H](O)[C@]1(C)O |  | FaSSIF | literature value |  | solubility | 132 µg/mL (≈ 176 µM)
CN1CC(=O)N2[C@H](c3ccc4c(c3)OCO4)c3[nH]c4ccccc4c3C[C@@H]2C1=O |  | rat | oral, 1 mg/kg |  | AUC(0-t) | 158 ± 85.7 ng·h/mL
